Experimental data collected from several papers.
Compare with care: the assays were run in different laboratories. “And” joins repeats or separate records; there may be more than shown. ± gives the spread as reported.

O=C(CCc1ccc(O)cc1)c1c(O)cc(O)cc1OC1OC(CO)C(O)C(O)C1O (stereo not drawn) — IC50 (HDAC class I, II and IV (human); enzyme activity, inhibitor, fluorometric; K562 cell extract; 1 h, 37 °C): > 1000 µM
CCCCC/C=C/C(=O)CCc1ccc(O)c(OC)c1 — IC50 (mouse mAb 1-F12; antibody binding, indirect competitive ELISA; added: coating antigen 2-OVA): > 4 µg/mL
CC(C)NC(=O)[C@H](CCc1ccccc1)NC(=O)[C@H](CC(=O)NCC(C)(C)C)NC(=O)CCc1ccccc1 — IC50 (proteasome β5 site; Proteasome-Glo; Karpas-1106P; 1 h): 0.87 µM
N=C(N)c1ccc(-c2ccc(-c3nc4ccc(C(=N)N)cc4[nH]3)[se]2)cc1 — IC50 (PU.1; reporter gene, inhibitor, refers to: EGFP; PU.1-expressing HEK293 cells; 24 h): > 100 µM
COc1ccc(/C=C/C(=O)c2c(O)cc(OC)cc2OC)cc1 — IC50 (HDAC class I, II and IV (human); enzyme activity, inhibitor, fluorometric; K562 cell extract; 1 h, 37 °C): > 1000 µM
CCC(=O)CCCCC[C@@H]1NC(=O)[C@@H](C)n2nncc2[C@H]([C@@H](C)CC)NC(=O)[C@H](Cc2c[nH]c3ccccc23)NC1=O — IC50 (histone deacetylase; enzyme activity, inhibitor, fluorescence; HeLa nuclear extract): < 0.1 µM and ≤ 0.1 µM
N=C(N)c1ccc2nc(-c3ccc(-c4nc5ccc(C(=N)N)cc5[nH]4)[se]3)[nH]c2c1 — IC50 (PU.1; reporter gene, inhibitor, refers to: EGFP; PU.1-expressing HEK293 cells): ~3 µM
O=C(/C=C/c1ccccc1)c1ccccc1O — IC50 (HDAC class I, II and IV (human); enzyme activity, inhibitor, fluorometric; K562 cell extract; 1 h, 37 °C): > 1000 µM
CC[C@H](C)[C@@H]1NC(=O)[C@H](Cc2ccc(O)cc2)NC(=O)[C@@H](N)CSSC[C@@H](C(=O)N2CCC[C@H]2C(=O)N2CCC[C@H]2C(=O)NCC(N)=O)NC(=O)[C@H](CC(N)=O)NC(=O)[C@H](CCC(N)=O)NC1=O — IC50 (vasopressin V1a receptor, Macaca mulatta; membrane hyperpolarization, FLIPR membrane potential; CHO transfected with receptor): 0.000203 µM
COc1cc(CCC(C)=O)ccc1O — IC50 (mouse mAb 1-F12; antibody binding, indirect competitive ELISA; added: coating antigen 1-OVA): 0.68 µg/mL
Cc1ccc(CNC(=O)C(CCc2ccccc2)NC(=O)C(NC(=O)c2ccc(OCc3ccc(C(C)(C)C)cc3)cc2)C(C)O)cc1 (stereo not drawn) — IC50 (proteasome β5 site; Proteasome-Glo; WSUDLCL2; 1 h): 0.38 µM
C/C=C/c1ccc(OC(C)=O)c(OC)c1 — IC50 (anti-eugenol monoclonal antibody mouse; antibody binding, indirect competitive ELISA; antibody 0.25 µg/mL, added: coating antigen Eug-222-OVA 0.5 µg/mL): 0.0219 µg/mL
O=C(CCc1ccc(O)cc1)c1c(O)cc(O)cc1O — IC50 (HDAC class I, II and IV (human); enzyme activity, inhibitor, fluorometric; K562 cell extract; 1 h, 37 °C): > 1000 µM
O=c1cc(-c2ccccc2)oc2c(Br)c(O)c(Br)c(O)c12 — IC50 (BSA glycation; fluorescence; added: methylglyoxal): 10.1 to 100 µM
O=C(/C=C/c1ccccc1O)c1ccccc1 — IC50 (HDAC class I, II and IV (human); enzyme activity, inhibitor, fluorometric; K562 cell extract; 1 h, 37 °C): > 1000 µM
c1cc2nc(-c3ccc(-c4nc5ccc(C6=NCCN6)cc5[nH]4)[se]3)[nH]c2cc1C1=NCCN1 — IC50 (PU.1; reporter gene, inhibitor, refers to: EGFP; PU.1-expressing HEK293 cells; 24 h): 0.575 µM
COc1cc(/C=C/C(=O)c2ccc(O)cc2O)ccc1O — IC50 (HDAC class I, II and IV (human); enzyme activity, inhibitor, fluorometric; K562 cell extract; 1 h, 37 °C): 190 µM
Oc1ccc(-c2cc(-c3ccc(OCCN4CCCCC4)cc3)n(-c3ccc(O)cc3)n2)cc1 — IC50 (TLR2 (mouse); TNF-alpha production, inhibitor; RAW264.7; 6 h, added: Pam3Cys 100 ng/mL): 11.2 ± 0.3 µM

A few entries again:
N=C(N)c1ccc2nc(-c3ccc(-c4nc5ccc(C(=N)N)cc5[nH]4)[se]3)[nH]c2c1 — IC50 (PU.1; reporter gene, inhibitor, refers to: EGFP; PU.1-expressing HEK293 cells): ~3 µM
O=C(/C=C/c1ccccc1)c1ccccc1O — IC50 (HDAC class I, II and IV (human); enzyme activity, inhibitor, fluorometric; K562 cell extract; 1 h, 37 °C): > 1000 µM
